Published values from different studies.
Each numbered part is a random draw from the data of one study; scales do not carry over between parts. Several values in a cell are separate wells, animals, samples, runs or records.
Sequence of UniProt Q6P2M8 (whole entry, looked up): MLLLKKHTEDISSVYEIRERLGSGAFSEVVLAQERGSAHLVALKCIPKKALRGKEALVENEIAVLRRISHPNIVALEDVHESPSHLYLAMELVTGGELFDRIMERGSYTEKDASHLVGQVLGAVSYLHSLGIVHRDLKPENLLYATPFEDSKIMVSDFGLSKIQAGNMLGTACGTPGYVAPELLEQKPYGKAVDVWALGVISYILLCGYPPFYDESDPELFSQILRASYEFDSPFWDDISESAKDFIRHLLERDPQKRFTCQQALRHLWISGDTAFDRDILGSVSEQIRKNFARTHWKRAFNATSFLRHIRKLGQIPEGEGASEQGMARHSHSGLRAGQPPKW
Sequence of UniProt P35916 (whole entry, looked up): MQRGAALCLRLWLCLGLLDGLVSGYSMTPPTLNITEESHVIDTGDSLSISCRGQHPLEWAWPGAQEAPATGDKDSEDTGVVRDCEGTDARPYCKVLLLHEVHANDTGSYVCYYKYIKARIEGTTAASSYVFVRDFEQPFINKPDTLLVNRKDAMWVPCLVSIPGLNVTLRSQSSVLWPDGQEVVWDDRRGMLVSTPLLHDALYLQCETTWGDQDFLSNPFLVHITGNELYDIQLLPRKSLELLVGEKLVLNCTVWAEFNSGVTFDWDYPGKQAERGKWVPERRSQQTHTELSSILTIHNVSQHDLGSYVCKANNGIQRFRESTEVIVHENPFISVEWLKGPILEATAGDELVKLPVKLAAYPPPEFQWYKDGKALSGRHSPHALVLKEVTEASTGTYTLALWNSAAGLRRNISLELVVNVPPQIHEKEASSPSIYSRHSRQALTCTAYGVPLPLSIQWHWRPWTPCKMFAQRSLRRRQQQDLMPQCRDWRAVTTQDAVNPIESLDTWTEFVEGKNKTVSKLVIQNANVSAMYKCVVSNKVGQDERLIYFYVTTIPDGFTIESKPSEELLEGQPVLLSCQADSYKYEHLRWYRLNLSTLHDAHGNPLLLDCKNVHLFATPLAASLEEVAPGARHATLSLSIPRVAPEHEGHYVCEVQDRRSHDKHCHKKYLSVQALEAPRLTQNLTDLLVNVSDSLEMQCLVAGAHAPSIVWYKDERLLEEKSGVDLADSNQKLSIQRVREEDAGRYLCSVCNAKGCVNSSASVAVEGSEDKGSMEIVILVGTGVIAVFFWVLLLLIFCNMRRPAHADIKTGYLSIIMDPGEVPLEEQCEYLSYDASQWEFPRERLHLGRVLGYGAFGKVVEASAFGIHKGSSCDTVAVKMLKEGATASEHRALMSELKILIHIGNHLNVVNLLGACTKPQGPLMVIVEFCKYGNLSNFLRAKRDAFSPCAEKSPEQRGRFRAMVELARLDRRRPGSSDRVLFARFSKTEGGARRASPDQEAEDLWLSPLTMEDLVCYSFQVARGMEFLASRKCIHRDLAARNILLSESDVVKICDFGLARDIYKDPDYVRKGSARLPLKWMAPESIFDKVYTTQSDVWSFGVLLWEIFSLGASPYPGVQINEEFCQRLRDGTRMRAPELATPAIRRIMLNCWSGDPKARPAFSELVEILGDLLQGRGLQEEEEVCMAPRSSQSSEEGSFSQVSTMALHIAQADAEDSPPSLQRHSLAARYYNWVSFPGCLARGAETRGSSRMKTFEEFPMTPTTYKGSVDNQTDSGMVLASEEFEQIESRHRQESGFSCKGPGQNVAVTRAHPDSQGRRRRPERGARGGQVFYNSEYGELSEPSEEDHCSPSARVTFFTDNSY
Sequence of UniProt O75676 (whole entry, looked up): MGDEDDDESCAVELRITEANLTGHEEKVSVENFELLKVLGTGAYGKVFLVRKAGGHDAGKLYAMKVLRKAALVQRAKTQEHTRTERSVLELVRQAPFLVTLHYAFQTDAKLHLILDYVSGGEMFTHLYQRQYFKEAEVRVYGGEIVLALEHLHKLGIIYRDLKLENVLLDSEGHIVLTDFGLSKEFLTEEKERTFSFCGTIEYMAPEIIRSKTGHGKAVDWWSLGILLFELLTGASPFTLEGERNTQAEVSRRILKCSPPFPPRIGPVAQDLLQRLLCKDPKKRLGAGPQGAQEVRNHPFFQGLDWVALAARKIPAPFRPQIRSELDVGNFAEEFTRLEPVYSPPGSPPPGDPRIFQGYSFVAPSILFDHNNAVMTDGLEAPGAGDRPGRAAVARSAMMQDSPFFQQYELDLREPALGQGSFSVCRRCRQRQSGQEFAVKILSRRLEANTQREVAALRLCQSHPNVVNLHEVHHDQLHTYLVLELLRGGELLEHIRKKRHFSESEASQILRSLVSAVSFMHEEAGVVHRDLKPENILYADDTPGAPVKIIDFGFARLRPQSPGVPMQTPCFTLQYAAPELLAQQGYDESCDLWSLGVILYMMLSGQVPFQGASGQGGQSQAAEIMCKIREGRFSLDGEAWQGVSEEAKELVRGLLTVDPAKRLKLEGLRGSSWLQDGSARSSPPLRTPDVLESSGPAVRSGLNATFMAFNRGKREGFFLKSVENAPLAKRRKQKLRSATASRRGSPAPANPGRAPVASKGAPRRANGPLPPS
Sequence of UniProt Q9H4B4 (whole entry, looked up): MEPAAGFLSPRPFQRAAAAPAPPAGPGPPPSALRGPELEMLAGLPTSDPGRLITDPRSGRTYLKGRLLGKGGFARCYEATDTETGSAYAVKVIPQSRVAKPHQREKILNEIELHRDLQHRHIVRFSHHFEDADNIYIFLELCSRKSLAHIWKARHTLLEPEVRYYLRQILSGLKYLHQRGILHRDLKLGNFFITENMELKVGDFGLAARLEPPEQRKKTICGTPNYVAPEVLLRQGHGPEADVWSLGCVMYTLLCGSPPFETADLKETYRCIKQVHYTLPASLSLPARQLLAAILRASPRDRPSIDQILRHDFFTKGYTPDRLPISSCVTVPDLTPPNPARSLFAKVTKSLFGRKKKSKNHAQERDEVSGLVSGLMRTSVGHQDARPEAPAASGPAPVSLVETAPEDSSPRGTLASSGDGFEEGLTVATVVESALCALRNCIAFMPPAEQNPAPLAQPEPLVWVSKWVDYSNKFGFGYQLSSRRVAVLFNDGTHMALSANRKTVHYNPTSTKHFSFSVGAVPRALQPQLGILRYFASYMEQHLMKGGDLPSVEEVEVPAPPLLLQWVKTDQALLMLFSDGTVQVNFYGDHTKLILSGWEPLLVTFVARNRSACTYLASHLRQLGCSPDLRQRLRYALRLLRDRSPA
Sequence of UniProt Q16539 (whole entry, looked up): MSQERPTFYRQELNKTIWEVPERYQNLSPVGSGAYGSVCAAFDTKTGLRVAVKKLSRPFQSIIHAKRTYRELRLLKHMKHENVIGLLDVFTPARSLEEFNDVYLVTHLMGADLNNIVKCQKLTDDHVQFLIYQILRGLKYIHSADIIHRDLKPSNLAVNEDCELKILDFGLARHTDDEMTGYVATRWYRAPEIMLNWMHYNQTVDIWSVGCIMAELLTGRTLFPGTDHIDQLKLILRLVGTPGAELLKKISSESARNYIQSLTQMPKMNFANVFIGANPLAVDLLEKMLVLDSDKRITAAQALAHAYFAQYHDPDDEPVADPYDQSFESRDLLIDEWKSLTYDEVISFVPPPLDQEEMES
Sequence of UniProt P08581 (whole entry, looked up): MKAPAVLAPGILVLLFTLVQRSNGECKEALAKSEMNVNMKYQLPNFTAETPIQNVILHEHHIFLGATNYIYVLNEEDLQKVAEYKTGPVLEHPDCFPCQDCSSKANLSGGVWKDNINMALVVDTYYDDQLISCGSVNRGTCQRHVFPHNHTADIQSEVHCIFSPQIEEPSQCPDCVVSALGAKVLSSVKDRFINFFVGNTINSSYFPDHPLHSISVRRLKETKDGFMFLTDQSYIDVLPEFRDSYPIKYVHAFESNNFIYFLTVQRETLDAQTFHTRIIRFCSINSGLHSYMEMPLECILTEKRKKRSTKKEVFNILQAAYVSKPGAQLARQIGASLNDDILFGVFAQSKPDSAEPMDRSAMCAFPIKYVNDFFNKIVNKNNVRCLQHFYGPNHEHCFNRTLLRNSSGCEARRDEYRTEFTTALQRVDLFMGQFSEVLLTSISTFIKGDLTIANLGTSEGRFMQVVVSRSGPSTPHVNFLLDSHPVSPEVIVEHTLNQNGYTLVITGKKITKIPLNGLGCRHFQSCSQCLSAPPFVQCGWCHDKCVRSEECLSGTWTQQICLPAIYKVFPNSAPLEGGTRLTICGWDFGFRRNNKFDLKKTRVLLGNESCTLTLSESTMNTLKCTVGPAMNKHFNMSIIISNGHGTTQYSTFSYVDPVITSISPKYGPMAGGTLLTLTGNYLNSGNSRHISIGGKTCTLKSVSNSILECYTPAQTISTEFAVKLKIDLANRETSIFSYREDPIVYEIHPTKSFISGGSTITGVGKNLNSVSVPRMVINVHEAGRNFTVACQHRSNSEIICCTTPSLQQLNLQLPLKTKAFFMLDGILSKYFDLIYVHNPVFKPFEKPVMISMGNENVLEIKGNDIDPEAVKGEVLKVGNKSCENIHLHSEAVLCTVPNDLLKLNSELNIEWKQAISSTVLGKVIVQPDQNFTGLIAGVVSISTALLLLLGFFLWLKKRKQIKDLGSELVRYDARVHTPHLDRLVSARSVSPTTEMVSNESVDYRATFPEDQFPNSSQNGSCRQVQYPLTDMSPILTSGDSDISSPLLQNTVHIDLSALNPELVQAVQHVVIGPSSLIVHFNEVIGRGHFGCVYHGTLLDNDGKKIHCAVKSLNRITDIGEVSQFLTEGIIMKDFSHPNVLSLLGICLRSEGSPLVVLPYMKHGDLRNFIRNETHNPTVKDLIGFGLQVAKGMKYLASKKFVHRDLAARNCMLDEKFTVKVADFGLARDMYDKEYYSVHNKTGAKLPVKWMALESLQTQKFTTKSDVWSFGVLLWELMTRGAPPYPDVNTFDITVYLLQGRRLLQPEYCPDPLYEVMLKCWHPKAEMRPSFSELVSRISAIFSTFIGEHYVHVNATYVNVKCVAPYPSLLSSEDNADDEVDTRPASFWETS

Series 1
SMILES: COc1cc2ncnc(Nc3ccc(O)c(Br)c3)c2cc1OC
Read-out: enzyme activity
Action: inhibitor
Tested at: 0.5 µM
Reference: control
target	remaining activity [%]
PAK3 (Homo sapiens, UniProt O75914)	94.2
MAP2K1 (Homo sapiens, UniProt Q02750)	98.2
AKT2 (Homo sapiens, UniProt P31751)	98.7
Cyclin-dependent kinase 9, with cyclin K (CDK9, Homo sapiens, UniProt P50750)	91.1
MARK2 (Homo sapiens, UniProt Q7KZI7)	94.5
TXK (Homo sapiens, UniProt P42681)	83.3
CLK4 (Homo sapiens, UniProt Q9HAZ1)	101
MARK4 (Homo sapiens, UniProt Q96L34)	92.4
NEK3 (Homo sapiens, UniProt P51956)	88.4
KDR (Homo sapiens, UniProt P35968)	69.6
ROCK1 (Homo sapiens, UniProt Q13464)	96.1
Cyclin-dependent kinase 1, with cyclin A (CDK1, Homo sapiens, UniProt P06493)	101
MAPK1 (Homo sapiens, UniProt P28482)	102
PLK3 (Homo sapiens, UniProt Q9H4B4)	95.2
DCLK2 (Homo sapiens, UniProt Q8N568)	101
GRK4 (Homo sapiens, UniProt P32298)	105
RPS6KA4 (Homo sapiens, UniProt O75676)	93.8
MAPK14 (Homo sapiens, UniProt Q16539)	87.3
CAMK4 (Homo sapiens, UniProt Q16566)	95.6
CLK3 (Homo sapiens, UniProt P49761)	54.1
MINK1 (Homo sapiens, UniProt Q8N4C8)	64.4
PNCK (Homo sapiens, UniProt Q6P2M8)	103
CDC42BPB (Homo sapiens, UniProt Q9Y5S2)	98
MET (Homo sapiens, UniProt P08581)	96.4
DDR2 (Homo sapiens, UniProt Q16832)	119

Series 2
Target: His6 tag
Method: AlphaScreen counter screen
Tested at: concentration not given
Compound	inhibition
C=CCN(/C=C1/C(=O)O[C@H](COC)[C@@]2(C)C1=C(O)C(=O)C1=C2[C@H](OC(C)=O)C[C@]2(C)C(=O)CC[C@@H]12)CC=C	11.1%
CCOC(=O)c1cnc2cc(OCCOC(C)C)c(OCCOC(C)C)cc2c1O	9.95%
O=C(Nc1c[nH]nc1-c1nc2ccc(CN3CCOCC3)cc2[nH]1)NC1CC1	8.1%
O=c1n(Cc2ccccc2)sc(=S)n1Cc1ccccc1	-41.9%
Cc1c(CN2CCN(C(=O)[C@H](C)O)CC2)sc2c(N3CCOCC3)nc(-c3cnc(N)nc3)nc12	14.7%
CCN(CC)Cc1c(-c2ccncc2)[nH]c2ncccc12	1.1%

Series 3
Cell line: mouse MPNST tumor cells
Method: high-content nuclear imaging
Measured: cell number
Tested at: 10 µM
Time: 12 h
Setting: mean of 2 replicates
Reference: plate mean
Reading: higher = more cells
Compound	nuclei count
CCc1cc(-c2n[nH]c(C)c2-c2ccc3c(c2)OCCO3)c(O)cc1O	3.44 z-score
CCc1nc2c(o1)CC(c1ccc(C)cc1C)CC2=O (racemic)	0.771 z-score
NCc1ccc(S(N)(=O)=O)cc1	2.1 z-score
CN(C)C(=O)NC1(c2ccccc2)CCN(CCC[C@]2(c3ccc(Cl)c(Cl)c3)CCCN(C(=O)c3ccccc3)C2)CC1	-6.37 z-score
Nc1ncnc(Nc2ccc(OCc3ccccc3)c(Cl)c2)c1/C=N/OCCN1CCOCC1	-0.129 z-score
CC(C)Nc1cccnc1N1CCN(C(=O)c2cc3cc(NS(C)(=O)=O)ccc3[nH]2)CC1	1.02 z-score and 1.16 z-score
COc1cc(C)nc(-n2nc(C)cc2OC)n1	-1.07 z-score

Series 4
SMILES: O=C(N1CCS(=O)(=O)CC1)N1C[C@H](c2ccc(OC(F)(F)F)cc2)C[C@H](c2nc(C3CC3)no2)C1
Read-out: cell-free assay
Method: competition with immobilised ligand
Tested at: 1 µM
target	remaining binding
MAP4K1 (Homo sapiens, UniProt Q92918)	100%
WNK3 (Homo sapiens, UniProt Q9BYP7)	99%
CHEK1 (Homo sapiens, UniProt O14757)	100%
STK33 (Homo sapiens, UniProt Q9BYT3)	99%
FLT4 (Homo sapiens, UniProt P35916)	100%
MAP3K5 (Homo sapiens, UniProt Q99683)	100%

Series 5
Organism: Plasmodium berghei
Action: inhibitor
Cell line: Huh-7
Strain: liver stage
Tested at: 10 µM
Time: 24 h
Reference: untreated control
Structure (SMILES)	infection rate
CCOC(=O)c1ccc(O)cc1	87.4%
O=c1[nH]cc(F)c(=O)[nH]1	81.9%
NCc1ccc(S(N)(=O)=O)cc1	23.4%
CCCCCCc1ccc(O)cc1O	96.7%
O=C1NCC2(CCN(CCc3ccccc3)CC2)O1	88.4%
CN(Cc1cnc2nc(N)nc(N)c2n1)c1ccc(C(=O)NC(CCC(=O)O)C(=O)O)cc1 (racemic)	30.3%
Cc1ccccc1OCC(O)CO (stereo not drawn)	89.3%
